Assay results from different studies.
Each line is one published result; not all experiments were run side by side. ± marks the error that the study gave.
Target: Alpha-glucosidase MAL12 (MAL12, Saccharomyces cerevisiae S288c, UniProt P53341)
Chain of UniProt P53341 (whole entry, looked up): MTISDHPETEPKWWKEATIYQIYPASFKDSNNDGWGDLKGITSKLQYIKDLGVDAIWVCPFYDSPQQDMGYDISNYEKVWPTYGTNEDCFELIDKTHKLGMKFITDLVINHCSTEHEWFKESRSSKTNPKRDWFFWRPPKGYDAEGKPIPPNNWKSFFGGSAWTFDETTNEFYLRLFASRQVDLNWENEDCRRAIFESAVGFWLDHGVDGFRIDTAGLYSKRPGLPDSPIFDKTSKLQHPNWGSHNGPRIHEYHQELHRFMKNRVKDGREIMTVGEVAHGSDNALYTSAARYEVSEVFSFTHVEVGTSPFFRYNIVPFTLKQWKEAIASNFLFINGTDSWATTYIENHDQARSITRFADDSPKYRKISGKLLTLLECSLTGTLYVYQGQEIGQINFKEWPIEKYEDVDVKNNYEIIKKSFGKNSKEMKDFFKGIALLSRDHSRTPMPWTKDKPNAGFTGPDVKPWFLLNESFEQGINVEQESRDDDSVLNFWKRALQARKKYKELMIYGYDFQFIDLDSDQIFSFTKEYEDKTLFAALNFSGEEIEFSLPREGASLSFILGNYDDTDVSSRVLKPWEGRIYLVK

For `O=C1O[C@H](c2ccc(O)cc2)Cc2cccc(O)c21`, the IC50 was 43.8 µM (enzyme activity, inhibitor, absorbance).
The IC50 of `COc1ccc(/C=N/N=C(c2ccc(N(C)C)cc2)c2ccc(N(C)C)cc2)cc1` is reported as 0.94 ± 2.21 µM (enzyme activity, inhibitor; pH 6.8, 37 °C, added: p-nitrophenyl alpha-D-glucopyranoside).
`COc1ccc2c(c1OC)C(C(Cl)(Cl)Cl)N1CCc3cc4c(cc3C1=C2)OCO4` (stereo not drawn) has an IC50 of 327 µM (enzyme activity, inhibitor).
The IC50 of `O=C1C(=O)N(CCOc2ccc(F)cc2)c2ccc(Cl)cc21` is reported as 25.7 µM (enzyme activity, inhibitor).
`CC1=CC(=O)CC(C)(C)C1(O)C=CC(C)OC1OC(CO)C(O)C(O)C1O` (stereo not drawn) gave an IC50 of greater than 100 µM (enzyme activity, inhibitor, absorbance).
For `Cc1ccccc1/C=N/N=C(c1ccc(N(C)C)cc1)c1ccc(N(C)C)cc1`, the IC50 was 0.35 ± 0.91 µM (enzyme activity, inhibitor; pH 6.8, 37 °C, added: p-nitrophenyl alpha-D-glucopyranoside).
`O=C1C(=O)N(CCOc2ccc(F)cc2)c2ccc(Br)cc21` has an IC50 of 22.2 µM (enzyme activity, inhibitor).
`O=C(C=Cc1ccc(O)c(O)c1)OC1CC(O)(C(=O)O)CC(O)C1OC(=O)C=Cc1ccc(O)c(O)c1` (stereo not drawn) has an IC50 of 498 µM (enzyme activity, inhibitor, absorbance).
For `COc1ccc(-c2c(C(F)(F)F)oc3c(Cn4nc(C)cc4C)c(O)ccc3c2=O)cc1`, the IC50 was 21.2 ± 0.7 µM (enzyme activity, inhibitor; pH 6.8).
With `CN(C)c1ccc(C(=N/N=C/c2ccc(Cl)cc2Cl)c2ccc(N(C)C)cc2)cc1` the IC50 was 0.77 ± 0.64 µM (enzyme activity, inhibitor; pH 6.8, 37 °C, added: p-nitrophenyl alpha-D-glucopyranoside).
For `O=C1C(=O)N(CCOc2ccc(Cl)cc2)c2ccc(Cl)cc21`, the IC50 was 61.8 µM (enzyme activity, inhibitor).
`C=CC1C(OC2OC(CO)C(O)C(O)C2O)OC=C(C(=O)OC)C1CC(OC)OCC1OC(OC2OC=C(C(=O)O)C3CCC(C)C23)C(O)C(O)C1O` (stereo not drawn) gave an IC50 of greater than 100 µM (enzyme activity, inhibitor, absorbance).
The IC50 of `CN(C)c1ccc(C(=N/N=C/c2ccc(Cl)cc2)c2ccc(N(C)C)cc2)cc1` is reported as 0.31 ± 2.93 µM (enzyme activity, inhibitor; pH 6.8, 37 °C, added: p-nitrophenyl alpha-D-glucopyranoside).
The IC50 of `COC(=O)C1=COC(OC2OC(CO)C(O)C(O)C2O)C2C1CC(O)C2C` (stereo not drawn) is reported as greater than 100 µM (enzyme activity, inhibitor, absorbance).
The IC50 of `O=c1c(-c2ccc(O)cc2)coc2c(Cn3cccn3)c(O)ccc12` is reported as 16.2 ± 3.4 µM (enzyme activity, inhibitor; pH 6.8).
`C=CC1C(OC2OC(CO)C(O)C(O)C2O)OC=C2C(=O)OC(OC)CC21` (stereo not drawn) has an IC50 of greater than 100 µM (enzyme activity, inhibitor; added: p-nitrophenyl glucoside).
The IC50 of `C[C@H]1[C@H](C)CC[C@]2(C(=O)O)CC[C@]3(C)C(=CCC4[C@@]5(C)CCC(=O)C(C)(C)C5CC[C@]43C)[C@H]12` (stereo partly drawn) is reported as 82.7 µM (enzyme activity, inhibitor).
`O=C(/C=C/c1ccc(O)c2c1[C@H](C(=O)O[C@H](Cc1ccc(O)c(O)c1)C(=O)O)[C@@H](c1ccc(O)c(O)c1)O2)O[C@H](Cc1ccc(O)c(O)c1)C(=O)O` gave an IC50 of greater than 100 µM (enzyme activity, inhibitor; Saccharomyces cerevisiae).
`CN(C)c1ccc(C(=N/N=C/c2ccc3ccccc3c2)c2ccc(N(C)C)cc2)cc1` gave an IC50 of 0.43 ± 2.39 µM (enzyme activity, inhibitor; pH 6.8, 37 °C, added: p-nitrophenyl alpha-D-glucopyranoside).
`CC(C=CC1C(CO)=CC(=O)CC1(C)C)OC1OC(CO)C(O)C(O)C1O` (stereo not drawn) has an IC50 of greater than 100 µM (enzyme activity, inhibitor, absorbance).
`O=C1C(=O)N(CCOc2ccc(Br)cc2)c2ccc(Cl)cc21` gave an IC50 of 21.9 µM (enzyme activity, inhibitor).
With `CN(C)c1ccc(C(=N/N=C/c2cccc(Cl)c2)c2ccc(N(C)C)cc2)cc1` the IC50 was 0.72 ± 1.44 µM (enzyme activity, inhibitor; pH 6.8, 37 °C, added: p-nitrophenyl alpha-D-glucopyranoside).
The IC50 of `O=C1C(=O)N(CCOc2ccccc2)c2ccccc21` is reported as 39.6 µM (enzyme activity, inhibitor).
`O=C(/C=C/c1ccc(O)c2oc(-c3ccc(O)c(O)c3)cc12)O[C@H](Cc1ccc(O)c(O)c1)C(=O)O` has an IC50 of 4.31 ± 0.42 µM (enzyme activity, inhibitor; Saccharomyces cerevisiae).
`OC[C@H]1O[C@@H](Oc2cc3c(O)cc(O)cc3[o+]c2-c2cc(O)c(O)c(O)c2)[C@H](O)[C@@H](O)[C@H]1O` has an IC50 of 369 ± 13.8 µM.
`CC1=CC(=O)OC2(C)CC(O)CC(C)(C(=O)O)C2(O)C=C1` (stereo not drawn) has an IC50 of greater than 100 µM (enzyme activity, inhibitor, absorbance).
`CCCCCCSc1nc2ccccc2n1CC(=O)NN1C(=O)CSC1c1ccc(C(C)C)cc1` (stereo not drawn) gave an IC50 of 65 µM (enzyme activity, inhibitor, absorbance).
`O=C1C(=O)N(CCOc2ccccc2)c2ccc(Br)cc21` has an IC50 of 41.5 µM (enzyme activity, inhibitor).
For `CCCCCCSc1nc2ccccc2n1CC(=O)NN1C(=O)CSC1c1cccc(OC)c1` (stereo not drawn), the IC50 was 71.64 ± 0.58 µM (inhibitor).
The IC50 of `CC1CCC2C(C(=O)O)=COC(OC3OC(CO)C(O)C(O)C3O)C12` (stereo not drawn) is reported as greater than 100 µM (enzyme activity, inhibitor, absorbance).

For quick reference, copied from above:
`CC(C=CC1C(CO)=CC(=O)CC1(C)C)OC1OC(CO)C(O)C(O)C1O` (stereo not drawn) has an IC50 of greater than 100 µM (enzyme activity, inhibitor, absorbance).
`O=C1C(=O)N(CCOc2ccc(Br)cc2)c2ccc(Cl)cc21` gave an IC50 of 21.9 µM (enzyme activity, inhibitor).
With `CN(C)c1ccc(C(=N/N=C/c2cccc(Cl)c2)c2ccc(N(C)C)cc2)cc1` the IC50 was 0.72 ± 1.44 µM (enzyme activity, inhibitor; pH 6.8, 37 °C, added: p-nitrophenyl alpha-D-glucopyranoside).
The IC50 of `O=C1C(=O)N(CCOc2ccccc2)c2ccccc21` is reported as 39.6 µM (enzyme activity, inhibitor).
`O=C(/C=C/c1ccc(O)c2oc(-c3ccc(O)c(O)c3)cc12)O[C@H](Cc1ccc(O)c(O)c1)C(=O)O` has an IC50 of 4.31 ± 0.42 µM (enzyme activity, inhibitor; Saccharomyces cerevisiae).
